Assay results gathered from unrelated publications.
Lines come from different studies, so protocols differ. Numbers after ± are the reported error.

SMILES | test | test system | conditions | how to read | endpoint | result
CNC(=O)c1ccc(-c2cnc3ncc(Cc4ccc5ncccc5c4)n3n2)cc1F | – | HCC patients | oral, 600 mg twice daily, all grades RP2D expansion | – | abdominal pain incidence | 18%
CC(F)(F)c1nc2nc(CO)cc(Nc3ccc(S(F)(F)(F)(F)F)cc3)n2n1 | LC-MS/MS | malaria patients, plasma | oral, 250 mg of parent drug | – | AUC(0-inf), metabolite | 254 µg·h/mL
CNCCOC12CC3(C)CC(C)(CC(Cn4ncc(-c5ccc(N6CCc7cccc(C(=O)Nc8nc9ccccc9s8)c7C6)nc5C(=O)O)c4C)(C3)C1)C2 | – | anaesthetised male beagle dogs | intravenous bolus, 0.03 mg/kg, 135 min | relative to: baseline | cardiac output change | -67%
CCn1cc(C(=O)N2CCOCC2)c(=O)c2cc(NC3Cc4ccccc4C3)cnc21 | – | human, fed | oral suspension, 300 mg/day twice daily, day 1, arithmetic mean | – | half-life | 3.43 h
Cc1c(-c2ccc(N3CCc4cccc(C(=O)Nc5nc6ccccc6s5)c4C3)nc2C(=O)O)cnn1CC12CC3(C)CC(C)(C1)CC(OCCNCC[C@H](O)CO)(C3)C2 | – | beagle dog, male, anaesthetised | intravenous infusion, 0.3 mg/kg/min, 45 min | relative to: vehicle | dP/dt at 50 change | -23%
CO[C@H]1C[C@@H]2CC[C@@H](C)[C@@](O)(O2)C(=O)C(=O)N2CCCC[C@H]2C(=O)O[C@H]([C@H](C)C[C@@H]2CC[C@@H](O)[C@H](OC)C2)CC(=O)[C@H](C)/C=C(\C)[C@@H](O)[C@@H](OC)C(=O)[C@H](C)C[C@H](C)/C=C/C=C/C=C/1C | – | healthy adult horses | intravenous, 0.06 mg/kg, 0 h | – | rectal temperature | 37.1 ± 0.4 °C
CCc1cc(C(=O)NC)c2nccc(N3CCc4c(cc(Cn5ccnc5)cc4-c4cn(C)nc4C(F)(F)F)C3=O)c2c1 | – | Sprague Dawley rats | oral, 100 mg/kg twice daily, 7 days | relative to: vehicle | reticulocyte count change | -40.9%
CCN1CCN(Cc2ccc(Nc3ncc(F)c(-c4cc(F)c5nc(C)n(C(C)C)c5c4)n3)nc2)CC1 | – | healthy human, fasted | oral, 150 mg, tablet | – | Vss/F | 1740 L
O=C(O)CCC(=O)O.[2H]C([2H])([2H])Oc1cc(C)c2[nH]ccc2c1CN1CC[C@@H](C2CC2)C[C@H]1c1ccc(C(=O)O)cc1 | – | healthy Chinese subjects | 200 mg, single ascending dose | – | TEAE urine bacteria positive | 0%
O=C(Nc1nc2cccc(-c3ccc(CN4CCS(=O)(=O)CC4)cc3)n2n1)C1CC1 | measured: joint swelling | human rheumatoid arthritis patients | oral, 75 mg once daily, 4 weeks, regardless of relatedness | – | treatment-emergent adverse events | 0%
CNC(=O)c1ccc(-c2cnc3ncc(Cc4ccc5ncccc5c4)n3n2)cc1F | – | Japanese patients | oral, 400 mg, grade 3/4 | – | Pneumonitis treatment discontinuation | 0%
COC(=O)C1=CO[C@@H](O[C@@H]2O[C@H](CO)[C@@H](O)[C@H](O)[C@H]2O)[C@@H]2C(CO)=CC[C@H]12 | post-procedure stability | rat plasma | 200 ng/mL, 1 h, room temperature | – | accuracy | 104%
CO[C@H]1/C=C/O[C@@]2(C)Oc3c(C)c(O)c4c(c3C2=O)C2=NC3(CCN(CC(C)C)CC3)NC2=C(NC(=O)/C(C)=C\C=C\[C@H](C)[C@H](O)[C@@H](C)[C@@H](O)[C@@H](C)[C@H](OC(C)=O)[C@@H]1C)C4=O | – | CD-1 mouse female, plasma | oral, 10 mg/kg | – | fAUC/MIC ratio | 0.25
CC(C)(C(=O)N1CCOc2c(C#N)cncc2C1)C(F)F | measured: vessel puncture site hypoaesthesia | healthy humans, both sexes | oral, 20 mg single dose | – | subjects with TEAE | 0%
N#Cc1ccc2c(c1)[C@H]1CCCN(C(=O)c3ccc4[nH]cnc4c3)[C@H]1C2 | – | human | 20 mg, day 7 | – | minimum ACTH level | 4.2 pmol/L
FC(F)(F)c1ccc(CNc2ccc(Cc3c[nH]c4ncc(Cl)cc34)cn2)cn1 | – | patients with advanced solid tumours | oral, 1000 mg/day, all patients, all grades | – | cognitive disorder incidence | 8%
COc1cccc(OC)c1-c1cc(C(=O)NC2(C(=O)O)C3CC4CC(C3)CC2C4)nn1-c1ccc(C(=O)N(C)CCCN(C)CCCN(C)C(=O)CN2CCN(CC(=O)[O-])CCN(CC(=O)[O-])CCN(CC(=O)[O-])CC2)cc1C(C)C.[177Lu+3] (centres unmarked) | – | mouse, HT-29 xenograft | 24 h post injection, biodistribution | relative to: tumour over heart uptake | tumour-to-heart ratio | 105
CN[C@@H]1COc2c(S(=O)(=O)NC(=O)Nc3c4c(cc5c3CCC5)CCC4)cnn2C1 | – | healthy human volunteers, urine | oral, 600 mg, fasted | – | amount excreted in urine 0-48 h | 74.8 mg
COc1ccc2[nH]c([S@+]([O-])Cc3ncc(C)c(OC)c3C)nc2c1 | – | human, dried blood spots | 10 mg omeprazole, median, together with: voriconazole | relative to: with voriconazole over alone | AUC ratio | 3.8
C=CC(=O)NC1CCN(c2ncc3ncnc(Nc4ccc(Oc5ccc6c(c5)ncn6C)c(C)c4)c3n2)CC1 | measured: dry mouth | human male | oral, dose not given, CTCAE on-treatment AEs | – | adverse events incidence | 0%
CC(C)[C@H](C(=O)Nc1ccc(C(=O)NO)cc1)c1ccccc1 | – | whole blood | 10.0 ng/mL, 3 h, 4 °C, stability on ice | – | accuracy | 100%

SMILES | test | test system | conditions | how to read | endpoint | result
C=CC(=O)N1CCC(c2ccc(C(N)=O)c(-c3ccc(Oc4ccccc4)cc3)n2)CC1 | serious adverse event Hypoalbuminemia | patients with relapsed/refractory MCL | oral | – | incidence | 0.9%
C=CC(=O)Nc1cc(Nc2nccc(-c3cn(C4CC4)c4ccccc34)n2)c(OC)cc1N(C)CCN(C)C | – | BALB/c nude mouse, LU0387 xenograft, serum | oral, 40 mg/kg | – | TG level | 1.02 ± 0.116 mmol/L
O=C(O)C1=CO[C@@H](O[C@@H]2O[C@H](CO)[C@@H](O)[C@H](O)[C@H]2O)[C@@H]2C(CO)=CC[C@H]12 | post-procedure stability | rat plasma | 1000 ng/mL, 3 h, room temperature | – | accuracy | 98.8%
Cc1cc2nc3c(=O)[nH]c(=O)nc-3n(C[C@H](O)[C@H](O)[C@H](O)CO)c2cc1C | binding, MIDAS equilibrium dialysis LC-MS | A2AR-BRIL thermostabilized | concentration not given | relative to: no-protein control | log2 fold change | -0.252
O=c1c2ccccc2oc2ccccc12 | – | tricaprin-tricaprylin mixture | 45 °C, tricaprin fraction 0.17 | – | solubility | 0.0516 mole fraction
COc1cc(Nc2ncc3c(n2)-c2ccc(Cl)cc2C(c2c(F)cccc2OC)=NC3)ccc1C(=O)O | measured: decreased lymphocyte count, all grades | cancer patients, phase 1/2 | oral, dose not given, together with: pembrolizumab | – | patients with adverse event | 75%
C[C@@H]1CCO[C@H]2Cn3cc(C(=O)NCc4ccc(F)cc4F)c(=O)c(O)c3C(=O)N12 | population PK, post-hoc | children aged 0.17 to 2 years, 6 to <10 kg, plasma | oral, 10 mg dispersible tablet, steady state, geometric mean | – | AUC(0-24) | 52.1 µg·h/mL
c1ccc2c(c1)ccc1ccccc12 | – | polyethylene-water partitioning | PAH compilation | relative to: maximum over minimum K | literature range factor | 5
CC(C)(Sc1ccncc1-c1ccc(C#N)c2ccccc12)C(=O)O | – | human, urine | oral, 2.5 mg, together with: febuxostat 0 mg | – | amount excreted in urine (0-24 h) | 40.8 µg
O=C(Cc1ccc2ccccc2c1)Nc1cc(C2CCC2)[nH]n1 | – | extracted mouse plasma | 375 ng/mL, 24 h, 4 °C, autosampler stability | – | accuracy | 102%
Cn1cc([C@H]2C[C@H]3CSC(N)=N[C@@]3(c3ccc(F)cc3F)CO2)cn1 | – | male 129/SVE mouse, brain | subcutaneous, 10 mg/kg, 9 h | – | brain concentration | 276 nM
CN(C)C(=N)N=C(N)N | measured: diarrhoea | healthy men | oral, dose not given, 8 days, treatment-emergent, crossover trial | – | subjects with adverse event | 4.5%
CN1CC(=O)N2[C@H](c3ccc4c(c3)OCO4)c3[nH]c4ccccc4c3C[C@@H]2C1=O | – | human plasma | 1.50 ng/mL, 74 days, long-term storage -20 °C | – | accuracy | 97.7%
CCO[C@H]1CCN(Cc2c(OC)cc(C)c3[nH]ccc23)[C@H](c2ccc(C(=O)O)cc2)C1 | – | PNH patients, active haemolysis | oral, 25 mg, treatment | – | incidence alkaline phosphatase increase | 0%
CN(C(=O)n1cnc(-c2ccc[n+]([O-])c2)c1)[C@H]1CC[C@H](O)CC1 | – | Wistar rat, midbrain | oral, 10 mg/kg/day of BIA 10-2474, 24 h, repeated 5 days | – | concentration | 13.8 ± 0.3 ng/g
Cc1cc(C)c(CNC(=O)c2cc(Cl)c3c(c2C)O[C@@](C)([C@H]2CC[C@H](N(C)C)CC2)O3)c(=O)[nH]1 | measured: Pruritus | human patients | oral, 200 mg once daily, 1 day onset day 14 | – | patients with TEAE | 4.2%
Nc1ncnc2c1ncn2[C@@H]1O[C@H](COP(=O)(O)OS(=O)(=O)O)[C@@H](OP(=O)(O)O)[C@H]1O | binding, MIDAS equilibrium dialysis LC-MS | A2AR-BRIL thermostabilized | concentration not given | relative to: no-protein control | log2 fold change | -0.417
COc1cc(C(=O)NC2CCN(C)CC2)c(F)cc1Nc1ncc(C(F)(F)F)c(Oc2cccc3c2C(=O)N(C)C3)n1 | – | human patients, urine and plasma | oral, 300 mg single dose, geometric mean | – | renal clearance (0-24 h) | 10.8 mL/min
N=C(N)NCCNC(=O)C1(Nc2ccccc2)CCN(Cc2ccccc2)CC1 | – | female Sprague-Dawley rats, plasma | oral, 50 mg/kg | – | apparent volume of distribution | 0.3 L
CNC(=O)c1cc(Oc2ccc(NC(=O)Nc3ccc(Cl)c(C(F)(F)F)c3)c(F)c2)ccn1 | – | reconstituted mouse plasma extract | up to 24 h, 4 °C | relative to: initial concentration | autosampler stability | < 15%

For quick reference, copied from above:
SMILES | test | test system | conditions | how to read | endpoint | result
O=C(Cc1ccc2ccccc2c1)Nc1cc(C2CCC2)[nH]n1 | – | extracted mouse plasma | 375 ng/mL, 24 h, 4 °C, autosampler stability | – | accuracy | 102%
Cn1cc([C@H]2C[C@H]3CSC(N)=N[C@@]3(c3ccc(F)cc3F)CO2)cn1 | – | male 129/SVE mouse, brain | subcutaneous, 10 mg/kg, 9 h | – | brain concentration | 276 nM
CN(C)C(=N)N=C(N)N | measured: diarrhoea | healthy men | oral, dose not given, 8 days, treatment-emergent, crossover trial | – | subjects with adverse event | 4.5%
CN1CC(=O)N2[C@H](c3ccc4c(c3)OCO4)c3[nH]c4ccccc4c3C[C@@H]2C1=O | – | human plasma | 1.50 ng/mL, 74 days, long-term storage -20 °C | – | accuracy | 97.7%
